Measurements gathered from unrelated publications.

`CC(=O)c1c(C)c2cnc(Nc3ccc(C4CCN(CCS(C)(=O)=O)CC4)cn3)nc2n(C2CCCC2)c1=O`: “patients with any TRAE” 100% (HR+/HER2- advanced breast cancer patients; oral, 200 mg).
`CO[C@H]1C[C@@H]2CC[C@@H](C)[C@@](O)(O2)C(=O)C(=O)N2CCCC[C@H]2C(=O)O[C@H]([C@H](C)C[C@@H]2CC[C@@H](OC(=O)NCCOCCOCCOCCOCCOCCOCCOCCOCCC(=O)N3CCc4cc(Cn5nc(-c6ccc7oc(N)nc7c6)c6c(N)ncnc65)ccc4C3)[C@H](OC)C2)C[C@@H](O)[C@H](C)/C=C(\C)[C@@H](O)[C@@H](OC)C(=O)[C@H](C)C[C@H](C)/C=C/C=C/C=C/1C`: “patients with AE” 40% (refers to: treatment-related decreased appetite; patients with advanced solid tumours; intravenous, 1.6 mg/3 mg, any grade, weekly).
For `C=CCNc1c(O)cc2c(O)c1C[C@@H](C)C[C@H](OC)[C@H](O)[C@@H](C)/C=C(\C)[C@H](OC(N)=O)[C@@H](OC)/C=C\C=C(/C)C(=O)N2`, “patients with back pain TEAE” read 33% (unresectable or metastatic STS, GIST, other; intravenous, 90 mg/m^2).
`N[C@@H]1c2ccccc2OC12CCN(c1cnc3c(N4CCCc5ncccc54)n[nH]c3n1)CC2` — result for “patients with serious AEs”: 34% (phase Ia; patients advanced metastatic solid tumours; oral, dose not given).
For `Nc1nc2cc(-c3ccc4ncc(C(=O)N5CCOCC5)n4c3)ccc2o1`, “patients with drug-related AEs” read 89% (advanced solid tumour patients; dose not given, at least 1 AE, all schedules; reference: patients).
For `CCN(CCO)CCCC(C)Nc1ccnc2cc(Cl)ccc12` (centres unmarked), “patients with adverse event” read 33% (refers to: Chills grade 1; newly diagnosed glioblastoma patients; oral, 400 mg/dose, with radiotherapy and temozolomide).
For `O=C1Nc2cc3[nH]nc(-c4ccncc4)c3cc2CN1Cc1ccccc1`, “patients with dizziness” read 0% (CTCAE v4.03; advanced solid tumour patients; intravenous, 3.6 mg/kg, schedules 1/2).
`CN1CC[C@@H](c2c(O)cc(O)c3c(=O)cc(-c4ccc(C(F)(F)F)cc4Cl)oc23)[C@@H]1CO`: “patients with adverse event” 0% (refers to: urinary incontinence; AML; oral, 100 mg, grade 3 to 4, intermittent dosing).

Excerpt of the above:
`N[C@@H]1c2ccccc2OC12CCN(c1cnc3c(N4CCCc5ncccc54)n[nH]c3n1)CC2` — result for “patients with serious AEs”: 34% (phase Ia; patients advanced metastatic solid tumours; oral, dose not given).
